Experimental data from different studies.
Compare with care: the assays were run in different laboratories. Numbers after ± are the reported error.

Molecule	organism	test	system	setting	MIC
N=C(N)NCCC[C@H](NC(=O)[C@H](Cc1c[nH]cn1)NC(=O)[C@@H]1CCCN1C(=O)[C@H](CS)NC(=O)[C@@H]1CCCN1)C(=O)N[C@@H](CS)C(=O)O	Streptococcus pyogenes	broth microdilution	MTCC 442	37 °C	60 µg/mL
CO/N=C(\C(=O)N[C@@H]1C(=O)N2C(C(=O)O)=C(COC(C)=O)CS[C@H]12)c1csc(N)n1	Klebsiella aerogenes		AmpC-overproducing clinical isolate	alone without inhibitor	32 µg/mL
O=C(N/N=C/c1ccccc1)c1cc([N+](=O)[O-])cc([N+](=O)[O-])c1	Aspergillus niger	tube dilution		7 days, 25 °C	< 25.1 µM
CC[C@H](C)[C@H](NC(=O)[C@@H]1CCCN1C(=O)[C@H](CCCCN)NC(=O)[C@@H]1CCCN1C(=O)[C@@H]1CCCN1C(=O)[C@@H](NC(=O)[C@@H]1CCCN1C(=O)[C@H](CCCNC(=N)N)NC(=O)[C@@H]1CCCN1C(=O)[C@H](CCCCN)NC(=O)[C@H](Cc1ccc(O)cc1)NC(=O)[C@H](CO)NC(=O)CNC(=O)[C@H](CCCCN)NC(=O)[C@H](CC(=O)O)NC(=O)[C@@H](N)C(C)C)[C@@H](C)O)C(=O)N[C@@H](Cc1ccc(O)cc1)C(=O)N[C@@H](CC(N)=O)C(=O)N[C@@H](CCCNC(=N)N)C(=O)N[C@@H](CC(N)=O)C(=O)O	Salmonella enterica		serovar Newport	18 h, 37 °C, 12.5% Mueller-Hinton broth	0.075 ± 0.018 µM
Cc1cccc(C(=O)N/N=C/c2ccccc2)c1	Aspergillus niger	microbial growth, broth dilution		7 days	26.3 µM
LSTFFRLFNRSFTQGRRRRSVQWCA	Streptococcus mutans	broth microdilution	peptide, GS-5	24 h, 37 °C, planktonic, anaerobic	13.3 ± 4 µg/mL
CCCCCCCCCCCCCCCC(=O)N/N=C/c1ccccc1	Aspergillus niger	microbial growth, broth dilution		7 days	138 µM
CC[C@H](C)[C@H](NC(=O)[C@@H]1CCCN1C(=O)[C@H](CCCCN)NC(=O)[C@@H]1CCCN1C(=O)[C@@H]1CCCN1C(=O)[C@@H](NC(=O)[C@@H]1CCCN1C(=O)[C@H](CCCNC(=N)N)NC(=O)[C@@H]1CCCN1C(=O)[C@H](CCCNC(=N)N)NC(=O)[C@H](Cc1ccc(O)cc1)NC(=O)[C@H](CO)NC(=O)CNC(=O)[C@H](CCCCN)NC(=O)[C@H](CC(=O)O)NC(=O)[C@@H](N)C(C)C)[C@@H](C)O)C(=O)N[C@@H](Cc1ccc(O)cc1)C(=O)N[C@@H](CC(N)=O)C(=O)N[C@@H](CCCNC(=N)N)C(=O)N[C@@H](CC(N)=O)C(=O)O	Salmonella enterica		serovar Infantis #129 B	18 h, 37 °C, 12.5% Mueller-Hinton broth	0.098 ± 0.045 µM
CC1CCC(C(C)C)C(OC(=O)Cn2c(COc3ccccc3)[n+](C)c3ccccc32)C1 (centres unmarked)	Mycobacteroides abscessus	microbial growth			26.7 µM
CC(C)C[C@H](NC(=O)[C@H](CCCNC(=N)N)NC(=O)[C@H](CC(C)C)NC(=O)[C@@H](NC(=O)[C@H](CC(C)C)NC(=O)[C@H](Cc1c[nH]cn1)NC(=O)[C@H](C)NC(=O)[C@@H](NC(=O)[C@@H](N)CO)[C@@H](C)O)C(C)C)C(=O)N[C@@H](CCCNC(=N)N)C(=O)NCC(=O)NCC(=O)O	Mycolicibacterium smegmatis		mc2 155	37 °C, ≥90% viability decrease	100 µM
CCCCCCCCCCCCCC(=O)N/N=C/c1ccccc1	Aspergillus niger	microbial growth, broth dilution		7 days	57.5 µM
TFFRLFNRSFTGRRRRSVQWCA	Streptococcus mutans	broth microdilution	peptide, UA159	planktonic, anaerobic	10.7 ± 4 µg/mL
CCCCCCCCCCCCCC(=O)N/N=C/c1ccccc1Cl	Aspergillus niger	microbial growth, broth dilution		7 days	75.9 µM
COc1ccc(OCc2n(CC(=O)OC3CC(C)CCC3C(C)C)c3ccccc3[n+]2C)cc1 (centres unmarked)	Mycobacteroides abscessus	microbial growth			26 µM
Cc1ncc([N+](=O)[O-])n1CCO	Bacteroides fragilis		nim-positive reference strains		> 256 µg/mL
O=C(NCc1ccc2c(c1)OCO2)c1ncc(Br)cc1F	Nakaseomyces glabratus	microbial growth	ATCC2001	72 h	100 µM
CC[C@H](C)[C@H](NC(=O)[C@H](CCCNC(=N)N)NC(=O)[C@H](CCCCN)NC(=O)[C@H](CC(C)C)NC(=O)[C@H](CC(C)C)NC(=O)CNC(=O)[C@H](Cc1c[nH]cn1)NC(=O)CNC(=O)CN)C(=O)N[C@@H](CCCCN)C(=O)N[C@H](C(=O)N[C@@H](CC(C)C)C(=O)N[C@@H](CC(C)C)C(N)=O)[C@@H](C)O	Staphylococcus epidermidis		ATCC 12228	18 to 20 h	8 µM
STFFRLFNRSFTQGRRRRSVQWCA	Streptococcus mutans	broth microdilution	peptide, GS-5	24 h, 37 °C, planktonic, anaerobic	13.3 ± 4 µg/mL
CC(C)C[C@H](NC(=O)[C@H](CCCNC(=N)N)NC(=O)[C@H](CC(C)C)NC(=O)[C@@H](NC(=O)[C@H](C)NC(=O)[C@H](Cc1c[nH]cn1)NC(=O)[C@H](CC(C)C)NC(=O)[C@@H](NC(=O)[C@@H](N)CO)[C@@H](C)O)C(C)C)C(=O)N[C@@H](CCCNC(=N)N)C(=O)NCC(=O)NCC(=O)O	Mycolicibacterium smegmatis		mc2 155	37 °C, ≥90% viability decrease	50 µM

Molecule	organism	test	system	setting	MIC
CN[C@H](CC(C)C)C(=O)N[C@H]1C(=O)N[C@@H](CC(N)=O)C(=O)N[C@H]2C(=O)N[C@H]3C(=O)N[C@H](C(=O)N[C@H](C(=O)O)c4cc(O)cc(O)c4-c4cc3ccc4O)[C@H](O)c3ccc(c(Cl)c3)Oc3cc2cc(c3O[C@@H]2O[C@H](CO)[C@@H](O)[C@H](O)[C@H]2O[C@H]2C[C@](C)(N)[C@H](O)[C@H](C)O2)Oc2ccc(cc2Cl)[C@H]1O	Enterococcus faecalis		ATCC 51575		> 50 µg/mL
N=C(N)NCCC[C@H](NC(=O)[C@H](Cc1c[nH]cn1)NC(=O)[C@@H]1CCCN1C(=O)[C@H](CS)NC(=O)[C@@H](N)Cc1ccc(O)cc1)C(=O)N[C@@H](CS)C(=O)O	Streptococcus pyogenes	broth microdilution	MTCC 442	37 °C	55 µg/mL
TFFRLFNRGRRRRSVQWCA	Streptococcus mutans	broth microdilution	peptide, UA159	planktonic, anaerobic	10.7 ± 4 µg/mL
COC(=O)[C@H](C)NC(=O)c1ccc(NC(=O)c2[nH]c(C)c(Cl)c2Cl)c(OCCN)c1	Enterococcus faecalis	microbial growth, broth dilution	ATCC29212		> 25 µM
CC[C@H](C)[C@@H]1NC(=O)[C@H]([C@@H](C)O)NC(=O)[C@@H](NC(=O)[C@H](Cc2ccccc2)NC(=O)[C@H](C)NC(=O)[C@H](CCCCN)NC(=O)[C@H](CCCCN)NC(=O)[C@H](C)NC(=O)[C@@H](NC(=O)[C@H](CCCCN)NC(=O)[C@H](C)NC(=O)[C@H](C)NC(=O)[C@@H](NC(=O)CNC(=O)[C@H](C)NC(=O)[C@@H](NC(=O)[C@H](CCCCN)NC(=O)[C@@H]2CCCN2C(=O)[C@H](Cc2ccccc2)NC(=O)[C@@H](N)Cc2ccccc2)C(C)C)C(C)C)C(C)C)CSSC[C@@H](C(=O)O)NC(=O)[C@H](CCCCN)NC(=O)[C@H](CCCCN)NC(=O)[C@H](CO)NC1=O	Enterococcus faecium		12697	18 h	> 128 µM
CN[C@H](CC(C)C)C(=O)N[C@H]1C(=O)N[C@@H](CC(N)=O)C(=O)N[C@H]2C(=O)N[C@H]3C(=O)N[C@H](C(=O)N[C@H](C(=O)O)c4cc(O)cc(O)c4-c4cc3ccc4O)[C@H](O)c3ccc(c(Cl)c3)Oc3cc2cc(c3O[C@@H]2O[C@H](CO)[C@@H](O)[C@H](O)[C@H]2O[C@H]2C[C@](C)(N)[C@H](O)[C@H](C)O2)Oc2ccc(cc2Cl)[C@H]1O	Enterococcus gallinarum		vancomycin-intermediate ATCC 49608	20 h	8 to 16 µg/mL
O=C(/C=C/c1ccccc1)N/N=C/c1ccccc1Cl	Aspergillus niger	microbial growth, broth dilution		7 days	17.4 µM
CC[C@H](C)[C@H](NC(=O)[C@@H]1CCCN1C(=O)[C@H](CCCNC(=N)N)NC(=O)[C@@H]1CCCN1C(=O)[C@@H]1CCCN1C(=O)[C@@H](NC(=O)[C@@H]1CCCN1C(=O)[C@H](CCCNC(=N)N)NC(=O)[C@@H]1CCCN1C(=O)[C@H](CC(C)C)NC(=O)[C@H](Cc1ccc(O)cc1)NC(=O)[C@H](CO)NC(=O)CNC(=O)[C@H](CCCCN)NC(=O)[C@H](CC(=O)O)NC(=O)[C@@H](N)C(C)C)[C@@H](C)O)C(=O)N[C@@H](Cc1ccc(O)cc1)C(=O)N[C@@H](CC(N)=O)C(=O)N[C@@H](CCCNC(=N)N)C(=O)N[C@@H](CC(N)=O)C(=O)O	Salmonella enterica		serovar Infantis #129 B	18 h, 37 °C, 12.5% Mueller-Hinton broth	> 0.6 µM
KKKKKKKK (Lys8-PNA conjugate)	Streptococcus pyogenes	broth microdilution	peptide	0.02% acetic acid, 0.4% BSA	15.6 µM
Cc1cccc(C(=O)N/N=C/c2ccccc2Cl)c1	Aspergillus niger	microbial growth, broth dilution		7 days	30.9 µM
NCC[C@H](O)C(=O)N[C@@H]1C[C@H](N)[C@@H](O[C@H]2O[C@H](CN)[C@@H](O)[C@H](O)[C@H]2O)[C@H](O)[C@H]1O[C@H]1O[C@H](CO)[C@@H](O)[C@H](N)[C@H]1O	Mycobacteroides abscessus		ATCC 19977 ∆whiB7 ∆tap	120 h	0.25 µg/mL
O=C(/C=C/c1ccccc1)N/N=C/c1ccccc1	Aspergillus niger	microbial growth, broth dilution		7 days	25.1 µM
Cc1ccc(/N=N/C(C=O)=C(/O)c2cc3ccccc3o2)cc1	Bacillus cereus	microbial growth, broth dilution	UW85	18 h	256 µg/mL
CC[C@H](C)[C@H](NC(=O)CN)C(=O)NCC(=O)N[C@@H](C)C(=O)N[C@H](C(=O)N[C@@H](CC(C)C)C(=O)N[C@@H](CCCCN)C(=O)N[C@H](C(=O)N[C@@H](CC(C)C)C(=O)N[C@H](C(=O)N[C@H](C(=O)NCC(=O)N[C@@H](CC(C)C)C(=O)N1CCC[C@H]1C(=O)N[C@@H](C)C(=O)N[C@@H](CC(C)C)C(=O)N[C@H](C(=O)N[C@@H](CO)C(=O)N[C@@H](Cc1c[nH]c2ccccc12)C(=O)N[C@H](C(=O)N[C@@H](CCCCN)C(=O)N[C@@H](CCCNC(=N)N)C(=O)N[C@@H](CCCCN)C(=O)N[C@@H](CCCNC(=N)N)C(=O)N[C@@H](CCC(N)=O)C(=O)N[C@@H](CCC(N)=O)C(N)=O)[C@@H](C)CC)[C@@H](C)CC)[C@@H](C)O)[C@@H](C)O)C(C)C)C(C)C	Staphylococcus epidermidis	broth microdilution	KCTC 1917	16 h, 37 °C	1.6 µM
CC[C@H](C)[C@H](NC(=O)[C@H](CCCCN)NC(=O)CNC(=O)[C@H](CC(C)C)NC(=O)[C@H](Cc1ccccc1)NC(=O)[C@H](CCC(N)=O)NC(=O)[C@H](Cc1ccccc1)NC(=O)[C@@H](N)C(C)C)C(=O)N[C@H](C(=O)N[C@@H](Cc1c[nH]cn1)C(=O)N[C@@H](Cc1c[nH]cn1)C(=O)N[C@H](C(=O)NCC(=O)N[C@@H](CC(N)=O)C(=O)N[C@@H](Cc1ccccc1)C(=O)N[C@H](C(=O)N[C@@H](Cc1c[nH]cn1)C(=O)NCC(=O)N[C@@H](Cc1ccccc1)C(=O)N[C@@H](CO)C(=O)N[C@@H](Cc1c[nH]cn1)C(=O)N[C@H](C(=O)N[C@@H](Cc1ccccc1)C(N)=O)C(C)C)C(C)C)C(C)C)[C@@H](C)CC	Enterobacter cloacae	broth microdilution	AR 0136	pH 7.4	> 128 µM
pneumocandin I	Candida parapsilosis	broth microdilution, resazurin	ATCC 90018	24 h, 35 °C	12.8 µg/mL
CN[C@@H]1[C@H](O)[C@H](NC)[C@H]2O[C@@]3(O)C(=O)C[C@@H](C)O[C@H]3O[C@@H]2[C@H]1O	Mycobacteroides abscessus		ATCC 19977 ∆whiB7	120 h	32 µg/mL
Cc1ccccc1OCc1n(CC(=O)OC2CC(C)CCC2C(C)C)c2ccccc2[n+]1C (centres unmarked)	Mycolicibacterium smegmatis	microbial growth			5 µM
CC(C)C[C@H](NC(=O)[C@H](Cc1ccccc1)NC(=O)[C@H](CCCNC(=N)N)NC(=O)[C@H](CCCCN)NC(=O)[C@H](Cc1c[nH]c2ccccc12)NC(=O)[C@@H](N)CCCNC(=N)N)C(=O)N[C@@H](CCCNC(=N)N)C(=O)N[C@@H](CC(N)=O)C(=O)N[C@@H](Cc1c[nH]c2ccccc12)C(=O)N[C@H](C(N)=O)C(C)C	Staphylococcus epidermidis	broth microdilution	1457, Mueller-Hinton broth	overnight, 37 °C	> 32 µM
